# Assay results collected from several papers.
# Each line is one published result; not all experiments were run side by side. Values joined by “and” are separate records of one study, mostly repeats; a detail may differ. ± gives the spread as reported.
SMILES,test,system,setting,scale,endpoint,result
CC#CC(=O)N[C@H]1CCCN(c2c(F)cc(C(N)=O)c3[nH]c(C)c(C)c23)C1,,healthy volunteers,"oral, 1 mg once daily, 14 days, MAD phase I",,adverse events,83.3%
Cc1ccc(C(=O)N(CCCN)C(c2nc3snc(C)c3c(=O)n2Cc2ccccc2)C(C)C)cc1 (centres unmarked),hypophosphataemia grade ≥3 (CTCAE),human patients,"intravenous, 2 mg/day",,patients with adverse event,0%
Cl.[2H]C([2H])([2H])CC(=O)c1cnc(NC(=O)C2CC2)cc1Nc1cccc(-c2ncn(C([2H])([2H])[2H])n2)c1OC,,"human, fed, plasma","oral, 25 mg, single dose, liquid formulation",,elimination rate constant,2.44e-05 s⁻¹
C[C@@H](Nc1cc(F)cc(F)c1)c1cc(C(=O)N(C)C)cc2c(=O)cc(N3CCOCC3)oc12,measured: aspartate aminotransferase increased,patients with advanced solid tumours,"oral, dose not given, dose expansion phase I",,treatment-related serious adverse events,5%
CN(C(=O)n1cnc(-c2cccnc2)c1)[C@H]1CC[C@H](O)CC1,,"Wistar rat, medulla oblongata","oral, 10 mg/kg/day of BIA 10-2474, 72 h, repeated 5 days",,concentration,13.4 ± 1.4 ng/g
CC(C)(C)OC[C@@H]1C(=O)NCCN1C(=O)C[C@H](N)Cc1cc(F)c(F)cc1F,,"human, plasma","oral, dose not given, DP treatment",,AUC(tau) at steady state,91.8 ± 9.54 ng·h/mL
Cc1nc(-c2ccc(OCC(C)C)c(C#N)c2)sc1C(=O)O,,healthy Chinese subjects,"oral, 40 mg, fed",,subjects with pyrexia,5%
O=C1NCCc2nc(OCc3cccc(F)c3)ccc21,modified Irwin test,"Sprague-Dawley rat, male","oral, 100 mg/kg, 4 h",higher = stronger effect,leg weakness score,0.2
O=C(O)CCC(=O)O.[2H]C([2H])([2H])Oc1cc(C)c2[nH]ccc2c1CN1CC[C@@H](C2CC2)C[C@H]1c1ccc(C(=O)O)cc1,,"human, plasma","200 mg once daily, day 10, multiple ascending dose, geometric mean",,AUC(0-tau),67000 ng·h/mL
Cc1ccc(Sc2ccccc2N2CCNCC2)c(C)c1,measured: blood in urine,healthy adult women,"oral, 5 mg daily, 12 days",,participants with TEAE,0%
O=C1Cc2cc(CCN3CCN(c4nsc5ccccc45)CC3)c(Cl)cc2N1,,"male Hartley guinea pigs, anaesthetized","intravenous, 0.3 mg/kg over 10 min, after infusion",,heart rate,186 ± 0.3 beats/min
O=C1CC[C@H](Cc2ccc(OS(=O)(=O)O)c(O)c2)O1,,human CSF,"concentration not given, mean",,CSF concentration,not detected
Cc1cc(-c2nccc3c2ccn3CC(=O)Nc2ccc(-c3cnccn3)cn2)ccn1,,human,"15 mg once daily, multiple ascending dose",,subjects with Photophobia adverse event,11.1%
CCN1/C(=C/C(C)=O)Sc2ccc(F)cc21,,cynomolgus monkey,"oral, 100 mg/kg, 1 h post-dose",,diastolic blood pressure,74 ± 4 mmHg
CCc1c(-c2ccccc2)c(-c2ccccc2)nn1-c1ccccc1-c1cccc(OCC(=O)O)c1,,Sprague-Dawley rat,oral,,MRT(0-t),2.74 h and 2.97 h and 2.96 h
CCN(c1cc(-c2ccc(CN3CCOCC3)cc2)cc(C(=O)NCc2c(C)cc(C)[nH]c2=O)c1C)C1CCOCC1,,"mouse xenograft, liver",dose not given,,organ weight,648 mg
O=C(O)/C=C/c1cccc(O)c1,,human CSF,"concentration not given, mean",,CSF concentration,not detected
C=CCn1c(=O)c2cnc(Nc3ccc(N4CCN(C)CC4)cc3)nc2n1-c1cccc(C(C)(C)O)n1,,human,"oral, 150 mg twice daily, monotherapy lead-in, -5 days",geometric mean,AUC(0-t),5.04 µM·h
O=C1CC[C@H](N2Cc3cc(N4CCN(CC5CCN(c6ccc([C@@H]7c8ccc(O)cc8CC[C@@H]7c7ccccc7)cc6)CC5)CC4)ccc3C2=O)C(=O)N1,rapid equilibrium dialysis,human plasma,"2.5 µM, 6 h",,recovery,100%
CC[C@H](C)[C@H](NC(=O)[C@H](Cc1ccccc1)NC(=O)[C@H](CCC(=O)O)NC(=O)[C@H](CCCCNC(=O)COCCOCCNC(=O)COCCOCCNC(=O)CC[C@H](NC(=O)CCCCCCCCCCCCCCCCC(=O)O)C(=O)O)NC(=O)[C@H](C)NC(=O)[C@H](C)NC(=O)[C@H](CCC(N)=O)NC(=O)CNC(=O)[C@H](CCC(=O)O)NC(=O)[C@H](CC(C)C)NC(=O)[C@H](Cc1ccc(O)cc1)NC(=O)[C@H](CO)NC(=O)[C@H](CO)NC(=O)[C@@H](NC(=O)[C@H](CC(=O)O)NC(=O)[C@H](CO)NC(=O)[C@@H](NC(=O)[C@H](Cc1ccccc1)NC(=O)[C@@H](NC(=O)CNC(=O)[C@H](CCC(=O)O)NC(=O)C(C)(C)NC(=O)[C@@H](N)Cc1cnc[nH]1)[C@@H](C)O)[C@@H](C)O)C(C)C)C(=O)N[C@@H](C)C(=O)N[C@@H](Cc1c[nH]c2ccccc12)C(=O)N[C@@H](CC(C)C)C(=O)N[C@H](C(=O)N[C@@H](CCCNC(=N)N)C(=O)NCC(=O)N[C@@H](CCCNC(=N)N)C(=O)NCC(=O)O)C(C)C,12-lead Holter ECG,healthy humans,"subcutaneous, 1.5 mg once weekly, 48 h, steady state",baseline: placebo,QT change from baseline,-22.7 ms
O=C(O)CCCOc1ccc([18F])cc1-c1cc(-c2ccccc2C(F)(F)F)n(-c2ccccc2)n1,gamma counting,"male ddY mice, heart","intravenous, 2.1 MBq, 60 min",,radioactivity uptake,8.7 ± 2.84 SUV
COc1cc(Nc2ncc3c(n2)-c2ccc(Cl)cc2C(c2c(F)cccc2OC)=NC3)ccc1C(=O)O,,cancer patients,"oral, dose not given, grade 1 any attribution, together with: pembrolizumab",,patients with nasal congestion,13%
[18F]c1ccc(-c2ccc3c(c2)[nH]c2ccncc23)cn1,ex vivo biodistribution,"APP/PS1 mouse, AD model, kidneys","intravenous, 30 min",,SUV,2.62 ± 1.93
C[C@H]1CN(C(=O)CC#N)[C@]12CCN(c1ncnc3[nH]ccc13)C2,,healthy human,"oral, 12 mg single",,subjects with Arthralgia,0%
CCc1cc(C(=O)NC)c2nccc(N3CCc4c(cc(Cn5ccnc5)cc4-c4cn(C)nc4C(F)(F)F)C3=O)c2c1,,Sprague Dawley rats,"oral, 100 mg/kg twice daily, 7 days",,serum LDL level,0.6 ± 0.12 mmol/L
Cc1c(-c2ccc(N3CCc4cccc(C(=O)Nc5nc6ccccc6s5)c4C3)nc2C(=O)O)cnn1CC12CC3(C)CC(C)(C1)CC(OCCNCC[C@H](O)CO)(C3)C2,,"beagle dog, anaesthetised","intravenous infusion, 0.1 mg/kg/min, 75 min",baseline: baseline,mean arterial pressure change,2 mmHg
CN1C[C@H](COc2nccc3c(NCc4ccco4)cc(Cl)nc23)OC1=O,,"rabbit NZW female, isolated Langendorff heart","10 µM, 15 min",,heart rate,149 beats/min
N=C(N)NC(=N)NCCCCCCCCCC[P+](c1ccc(C(F)(F)F)cc1)(c1ccc(C(F)(F)F)cc1)c1ccc(C(F)(F)F)cc1.[Br-],19F NMR,"tumour-engrafted mice, blood and liver","intratumoral, 1 mg, 2 h",,detection,not detected
NCCOCCOCCNCc1ccc(CNC(=O)c2csc3nc[nH]c(=O)c23)cc1,haemolysis,human red blood cells,"1 h, 37 °C",,EC50,> 100 µM
N[C@@H]1c2ccccc2OC12CCN(c1cnc3c(N4CCCc5ncccc54)n[nH]c3n1)CC2,,"advanced metastatic solid tumour patients, plasma","oral, 50 mg once daily, cycle 1 day 15, geometric mean",,AUC(0-tau),8770 ng·h/mL
C[C@@H](Oc1ccc(S(C)(=O)=O)cc1C(=O)N1C[C@@H]2C[C@]2(c2cc(C(F)(F)F)on2)C1)C(F)(F)F,,"young humans, plasma","oral, 25 mg once daily, multiple dose, geometric mean",,half-life at steady state,2870 min
CNc1ccc(-c2nc3ccc(O)cc3s2)cc1 [carbon-11 labelled],ex vivo biodistribution,"B6SJL mouse, normal, cortex","intravenous, 30 min",,SUV,0.132 ± 0.049
COc1cc(N)c(Cl)cc1C(=O)NC1CCN(CCCOc2ccc(F)cc2)CC1OC (centres unmarked),,"male Hartley guinea pigs, anaesthetized","intravenous, 0.3 mg/kg group, baseline before infusion",,heart rate,221 ± 0.5 beats/min
COc1cc(C(=O)NC2CCN(C)CC2)c(F)cc1Nc1ncc(C(F)(F)F)c(Oc2cccc3c2C(=O)N(C)C3)n1,,"human, Taiwanese, plasma","oral, 200 mg single dose, geometric mean",,AUC(0-tau) cycle 1,14.5 µM·h
COc1ccc([C@@H]2Sc3ccccc3N(CCN(C)C)C(=O)[C@@H]2OC(C)=O)cc1,equilibrium dialysis,human liver microsomes,"2 µM, 20 h, pH 7.4, 37 °C, 0.5 mg/mL scaled to 1 mg/mL",,"fu,mic",0.852
O=C(CCc1ccc(O)cc1)c1c(O)cc(O)cc1O,,human CSF,"concentration not given, mean",,CSF concentration,not detected
CC(C)n1c(Nc2cccnc2)nc2cnc(Nc3ccc(N4CCN(C)CC4)cc3)nc21,measured: platelet count decreased,healthy male subjects,"oral, 150 mg, study, together with: rifampin",,subjects with adverse event,0%
C[C@@H]1CCO[C@H]2Cn3cc(C(=O)NCc4ccc(F)cc4F)c(=O)c(O)c3C(=O)N12,"population PK, post-hoc","children, 10 to <14 kg, plasma","oral, 8 mg granules, steady state, geometric mean",,AUC(0-24),34700 ng·h/mL
COc1ccc2c(C(=O)c3cc(OC)c(OC)c(OC)c3)c(-c3ccc(OC)c(OCc4ccc([N+](=O)[O-])s4)c3)[nH]c2c1,"non-enzymatic, no POR",phosphate buffer,"24 h, pH 7.4",,parent drug release,0%
O=C(COc1ccc(Cl)cc1)NC12CC(c3nnc([C@H]4C[C@@H](OC(F)(F)F)C4)o3)(C1)C2,,"humans, MAD","oral, dose not given, 14 days, all compound doses",,post lumbar puncture syndrome,2.9%
C=CCN1CC(=O)N2[C@@H](Cc3ccc(O)cc3F)C(=O)N(Cc3cccc(N4CC(N5CCN(CC)CC5)C4)n3)C[C@@H]2N1C(=O)NCc1ccccc1,,advanced solid tumour patients,"oral, 120 mg twice daily, any grade, dose-escalation",,treatment-related diarrhoea,37.5%
COc1cc(C(=O)O)ccc1OS(=O)(=O)O,,human CSF,"concentration not given, mean",,CSF concentration,not detected
Cc1cc(C)c(CNC(=O)c2cc(Cl)c3c(c2C)O[C@@](C)([C@H]2CC[C@H](N(C)C)CC2)O3)c(=O)[nH]1,,relapsed/refractory NHL patients,"oral, 200 mg once daily, onset after cycle 1 day 1",,adverse event Pruritus,16.7%
Nc1ncn([C@H]2C[C@H](O)[C@@H](CO)O2)c(=O)n1,,processed mouse plasma,"40 ng/mL, 24 h, 4 °C, re-injection stability",,mean deviation from nominal,3.77%
COc1cc2nccc(Oc3ccc(NC(=O)c4cc5c(n(-c6ccccc6)c4=O)CCCC5=O)nc3)c2cc1OC,,patients with relapsed/refractory AML,"oral, 10 mg once daily",,TEAEs leading to interruption,28.6%
N#Cc1ccc2c(c1)[C@H]1CCCN(C(=O)c3ccc4[nH]cnc4c3)[C@H]1C2,,"human, male","360 mg, day 15",,DHEA-S level,5.2 µmol/L
CCCC(CCC)C(=O)Oc1cccc(C(O)CCN)c1.O=CO (centres unmarked),,"Abca4-/-Rdh8-/- mice, photic damage","intraperitoneal, 10 mg/kg, 7 days, flash intensity 3",,photopic S-cone ERG b-wave,24.4 µV and 25 µV and 34.6 µV and 29.9 µV and 30.1 µV and 26.9 µV and 34.1 µV and 32.9 µV
CC(C)(C(=O)N1CCOc2c(C#N)cncc2C1)C(F)F,measured: abdominal pain,human,"oral, 20 mg twice daily, 14 days, multiple ascending dose",,subjects with adverse event,0%
O=c1c2ccccc2oc2ccccc12,,tricaprin-tricaprylin mixture,"30 °C, tricaprin fraction 0.56",,solubility,0.0455 mole fraction
CC(C)NCC(O)COc1cccc2ccccc12 (centres unmarked),,"male Hartley guinea pigs, anaesthetized","intravenous, 0.3 mg/kg group, baseline before infusion",,heart rate,222 ± 0.4 beats/min
O=C(Nc1nc2cccc(-c3ccc(CN4CCS(=O)(=O)CC4)cc3)n2n1)C1CC1,measured: blood and lymphatic disorders,rheumatoid arthritis patients,"oral, 30 mg once daily, 4 weeks, any relatedness",,treatment-emergent adverse events,0%
COc1ccc([C@@H](O)c2cc(-c3ncnc4cc(N5CCOCC5)ccc34)c(F)cc2Cl)nn1,,locally advanced rectal cancer patients,"50 mg, together with: capecitabine and radiotherapy",,drug-related lymphopenia incidence,0%
Nc1nc2c(nc([N+](=O)[O-])n2[C@@H]2O[C@H](CO)[C@@H](O)[C@H]2O)c(=O)[nH]1,"depurination, RP-HPLC",citrate-phosphate buffer 0.5 mM,"95 min, pH 5, 37 °C",,nucleoside remaining fraction,0.95
CCC(C)n1ncn(-c2ccc(N3CCN(c4ccc(OCC5COC(Cn6cncn6)(c6ccc(Cl)cc6Cl)O5)cc4)CC3)cc2)c1=O (centres unmarked),,healthy human volunteers,"oral, 200 mg, compound alone cohort",,incidence of oesophageal spasm,0%
CC(=O)Oc1ccccc1C(=O)O,,"male Hartley guinea pigs, anaesthetized","intravenous, 3 mg/kg group, baseline before infusion",,heart rate,227 ± 0.6 beats/min
CCOc1c([C@H](C)n2nc(C)c3c(N)ncnc32)cc(Cl)c(F)c1[C@@H]1CNC(=O)C1,measured: QTcF ≤450 ms,previously treated B-cell malignancy,"oral, 15 mg once daily, overall population",,ECG observations,86.7%

# For quick reference, copied from above:
SMILES,test,system,setting,scale,endpoint,result
COc1cc(N)c(Cl)cc1C(=O)NC1CCN(CCCOc2ccc(F)cc2)CC1OC (centres unmarked),,"male Hartley guinea pigs, anaesthetized","intravenous, 0.3 mg/kg group, baseline before infusion",,heart rate,221 ± 0.5 beats/min
COc1ccc([C@@H]2Sc3ccccc3N(CCN(C)C)C(=O)[C@@H]2OC(C)=O)cc1,equilibrium dialysis,human liver microsomes,"2 µM, 20 h, pH 7.4, 37 °C, 0.5 mg/mL scaled to 1 mg/mL",,"fu,mic",0.852
CC#CC(=O)N[C@H]1CCCN(c2c(F)cc(C(N)=O)c3[nH]c(C)c(C)c23)C1,,healthy volunteers,"oral, 1 mg once daily, 14 days, MAD phase I",,adverse events,83.3%
CCCC(CCC)C(=O)Oc1cccc(C(O)CCN)c1.O=CO (centres unmarked),,"Abca4-/-Rdh8-/- mice, photic damage","intraperitoneal, 10 mg/kg, 7 days, flash intensity 3",,photopic S-cone ERG b-wave,24.4 µV and 25 µV and 34.6 µV and 29.9 µV and 30.1 µV and 26.9 µV and 34.1 µV and 32.9 µV
O=C(O)CCC(=O)O.[2H]C([2H])([2H])Oc1cc(C)c2[nH]ccc2c1CN1CC[C@@H](C2CC2)C[C@H]1c1ccc(C(=O)O)cc1,,"human, plasma","200 mg once daily, day 10, multiple ascending dose, geometric mean",,AUC(0-tau),67000 ng·h/mL
C=CCN1CC(=O)N2[C@@H](Cc3ccc(O)cc3F)C(=O)N(Cc3cccc(N4CC(N5CCN(CC)CC5)C4)n3)C[C@@H]2N1C(=O)NCc1ccccc1,,advanced solid tumour patients,"oral, 120 mg twice daily, any grade, dose-escalation",,treatment-related diarrhoea,37.5%
